# Measurements from different studies.
# ± gives the spread as reported.
# Sequence of UniProt Q13315 (whole entry, looked up): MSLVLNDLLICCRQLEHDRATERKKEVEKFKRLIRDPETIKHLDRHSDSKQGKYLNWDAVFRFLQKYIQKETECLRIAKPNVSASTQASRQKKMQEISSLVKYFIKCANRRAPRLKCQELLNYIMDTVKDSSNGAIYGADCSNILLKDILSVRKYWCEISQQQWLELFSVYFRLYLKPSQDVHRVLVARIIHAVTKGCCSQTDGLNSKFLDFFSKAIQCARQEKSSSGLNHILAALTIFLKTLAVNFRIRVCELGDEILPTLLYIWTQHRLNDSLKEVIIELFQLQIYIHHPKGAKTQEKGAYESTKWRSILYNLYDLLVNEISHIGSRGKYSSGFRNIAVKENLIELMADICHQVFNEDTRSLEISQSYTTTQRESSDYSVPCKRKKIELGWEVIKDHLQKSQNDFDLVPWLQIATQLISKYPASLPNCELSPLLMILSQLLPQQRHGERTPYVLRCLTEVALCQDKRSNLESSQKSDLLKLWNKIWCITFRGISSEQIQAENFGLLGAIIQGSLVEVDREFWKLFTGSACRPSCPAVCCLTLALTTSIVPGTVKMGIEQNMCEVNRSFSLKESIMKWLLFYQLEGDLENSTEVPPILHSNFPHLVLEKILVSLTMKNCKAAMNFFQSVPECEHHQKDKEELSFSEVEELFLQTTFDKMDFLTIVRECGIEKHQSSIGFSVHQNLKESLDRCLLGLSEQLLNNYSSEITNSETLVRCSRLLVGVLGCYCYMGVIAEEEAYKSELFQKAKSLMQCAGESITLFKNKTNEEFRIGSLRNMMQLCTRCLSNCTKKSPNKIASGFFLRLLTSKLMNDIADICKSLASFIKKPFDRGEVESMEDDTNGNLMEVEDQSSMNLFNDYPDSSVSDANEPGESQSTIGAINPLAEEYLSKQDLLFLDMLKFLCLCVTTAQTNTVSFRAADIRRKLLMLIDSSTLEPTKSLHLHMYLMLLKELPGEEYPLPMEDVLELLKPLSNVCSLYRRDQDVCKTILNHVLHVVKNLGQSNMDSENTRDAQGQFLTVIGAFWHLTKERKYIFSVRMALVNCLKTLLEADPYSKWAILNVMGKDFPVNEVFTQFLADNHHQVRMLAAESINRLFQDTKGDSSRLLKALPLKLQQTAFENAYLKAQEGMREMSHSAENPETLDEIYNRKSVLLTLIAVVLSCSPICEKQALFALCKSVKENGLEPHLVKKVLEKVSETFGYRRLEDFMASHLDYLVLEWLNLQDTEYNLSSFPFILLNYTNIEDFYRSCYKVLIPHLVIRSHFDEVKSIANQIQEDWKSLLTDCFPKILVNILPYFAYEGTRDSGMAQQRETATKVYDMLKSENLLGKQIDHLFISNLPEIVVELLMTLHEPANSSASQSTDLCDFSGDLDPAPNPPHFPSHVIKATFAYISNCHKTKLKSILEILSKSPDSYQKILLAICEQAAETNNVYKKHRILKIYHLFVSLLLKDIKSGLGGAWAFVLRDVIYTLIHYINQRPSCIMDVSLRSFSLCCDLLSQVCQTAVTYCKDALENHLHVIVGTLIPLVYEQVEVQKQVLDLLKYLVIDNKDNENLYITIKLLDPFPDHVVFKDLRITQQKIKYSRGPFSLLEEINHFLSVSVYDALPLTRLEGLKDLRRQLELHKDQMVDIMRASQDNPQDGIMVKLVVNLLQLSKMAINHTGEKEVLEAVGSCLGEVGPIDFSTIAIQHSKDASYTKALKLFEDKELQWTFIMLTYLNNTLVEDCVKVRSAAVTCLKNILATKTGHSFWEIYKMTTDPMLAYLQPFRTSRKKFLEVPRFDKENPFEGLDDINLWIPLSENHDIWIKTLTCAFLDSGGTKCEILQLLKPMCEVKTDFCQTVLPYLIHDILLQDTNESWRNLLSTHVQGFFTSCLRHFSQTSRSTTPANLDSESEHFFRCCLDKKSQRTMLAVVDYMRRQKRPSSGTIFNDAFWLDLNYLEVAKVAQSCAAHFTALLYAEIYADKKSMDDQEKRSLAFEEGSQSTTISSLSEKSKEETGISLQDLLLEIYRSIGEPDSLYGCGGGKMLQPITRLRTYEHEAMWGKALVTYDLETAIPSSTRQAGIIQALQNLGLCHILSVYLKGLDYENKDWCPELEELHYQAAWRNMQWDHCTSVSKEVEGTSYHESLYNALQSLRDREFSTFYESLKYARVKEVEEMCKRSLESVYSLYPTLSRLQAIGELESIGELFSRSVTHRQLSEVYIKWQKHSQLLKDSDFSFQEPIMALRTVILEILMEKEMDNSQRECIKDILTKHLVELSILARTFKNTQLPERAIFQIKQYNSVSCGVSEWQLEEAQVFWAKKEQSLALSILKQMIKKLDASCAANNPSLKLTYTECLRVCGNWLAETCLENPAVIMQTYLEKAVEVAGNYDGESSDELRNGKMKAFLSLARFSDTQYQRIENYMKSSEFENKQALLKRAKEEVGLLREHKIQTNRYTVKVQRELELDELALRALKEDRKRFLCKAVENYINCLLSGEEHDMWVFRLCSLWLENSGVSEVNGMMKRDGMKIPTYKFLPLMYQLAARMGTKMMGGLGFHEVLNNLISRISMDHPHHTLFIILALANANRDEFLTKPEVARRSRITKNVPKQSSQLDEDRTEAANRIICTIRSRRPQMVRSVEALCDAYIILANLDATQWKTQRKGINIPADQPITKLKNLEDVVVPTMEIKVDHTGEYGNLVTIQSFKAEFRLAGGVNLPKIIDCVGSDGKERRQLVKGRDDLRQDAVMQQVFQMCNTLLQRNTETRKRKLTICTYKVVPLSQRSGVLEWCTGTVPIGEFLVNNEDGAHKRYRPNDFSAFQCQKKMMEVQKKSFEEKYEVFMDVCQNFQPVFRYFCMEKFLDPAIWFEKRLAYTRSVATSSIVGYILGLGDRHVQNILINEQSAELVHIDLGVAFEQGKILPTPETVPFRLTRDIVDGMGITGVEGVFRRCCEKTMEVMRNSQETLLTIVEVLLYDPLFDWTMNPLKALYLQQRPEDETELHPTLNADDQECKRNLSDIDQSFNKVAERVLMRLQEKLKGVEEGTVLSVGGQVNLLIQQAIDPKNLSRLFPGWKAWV
# Sequence of UniProt Q71U36 (whole entry, looked up): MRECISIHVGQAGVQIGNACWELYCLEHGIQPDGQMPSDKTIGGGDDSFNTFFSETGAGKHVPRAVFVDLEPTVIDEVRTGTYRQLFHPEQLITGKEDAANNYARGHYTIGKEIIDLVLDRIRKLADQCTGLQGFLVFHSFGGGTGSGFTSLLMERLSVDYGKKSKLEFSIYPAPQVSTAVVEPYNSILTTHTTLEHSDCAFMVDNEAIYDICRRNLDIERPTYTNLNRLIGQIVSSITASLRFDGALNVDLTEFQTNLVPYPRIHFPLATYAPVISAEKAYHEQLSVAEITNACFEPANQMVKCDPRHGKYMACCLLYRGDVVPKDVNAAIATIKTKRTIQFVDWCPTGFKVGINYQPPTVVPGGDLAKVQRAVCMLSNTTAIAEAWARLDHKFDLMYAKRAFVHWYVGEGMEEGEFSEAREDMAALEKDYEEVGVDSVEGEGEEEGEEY
# Sequence of UniProt P50406 (whole entry, looked up): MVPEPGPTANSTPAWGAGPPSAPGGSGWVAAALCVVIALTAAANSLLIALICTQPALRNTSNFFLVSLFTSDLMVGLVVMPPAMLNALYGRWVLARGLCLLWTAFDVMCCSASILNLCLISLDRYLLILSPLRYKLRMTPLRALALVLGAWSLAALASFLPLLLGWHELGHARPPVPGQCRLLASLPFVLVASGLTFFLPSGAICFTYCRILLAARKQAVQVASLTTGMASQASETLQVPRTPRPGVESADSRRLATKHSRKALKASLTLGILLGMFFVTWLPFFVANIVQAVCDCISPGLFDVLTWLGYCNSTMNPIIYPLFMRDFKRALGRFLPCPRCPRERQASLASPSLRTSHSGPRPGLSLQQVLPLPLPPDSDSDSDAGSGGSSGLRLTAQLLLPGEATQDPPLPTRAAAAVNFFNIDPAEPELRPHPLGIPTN
SMILES,target or system,assay,test system,setting,how to read,measurement,result
CC(C)C[C@H](NC(=O)[C@H](CCCCN)NC(=O)OCC1c2ccccc2-c2ccccc21)C(=O)N[C@H](C(=O)N[C@@H](Cc1ccccc1)C(=O)N[C@@H](Cc1ccccc1)C(=O)N[C@@H](CCCCN)C(=O)NCC(=O)N[C@@H](Cc1ccccc1)C(=O)N[C@@H](C)C(=O)N[C@@H](Cc1c[nH]c2ccccc12)C(=O)N[C@@H](CC(N)=O)C(=O)N[C@H](C(=O)N[C@H]1CSSC[C@@H](C(=O)N[C@@H](Cc2c[nH]cn2)C(=O)N[C@@H](CCCNC(=N)N)C(=O)N[C@@H](CCCNC(=N)N)C(=O)N[C@@H](C)C(=O)N[C@@H](CC(N)=O)C(N)=O)NC(=O)[C@H](C(C)C)NC(=O)[C@H](CCCNC(=N)N)NC(=O)[C@H](C(C)C)NC(=O)CNC(=O)[C@H](CC(N)=O)NC(=O)[C@H](CCCNC(=N)N)NC(=O)[C@H](Cc2ccc(O)cc2)NC(=O)[C@H](C(C)C)NC1=O)C(C)C)C(C)C,,,"ICR mice, serum","intraperitoneal, 10 mg/kg, day 5",,globulin,18.89 ± 0.17 g/L
CO[C@H]1C[C@@H]2CC[C@@H](C)[C@@](O)(O2)C(=O)C(=O)N2CCCC[C@H]2C(=O)O[C@H]([C@H](C)C[C@@H]2CC[C@@H](OC(=O)NCCOCCOCCOCCOCCOCCOCCOCCOCCC(=O)N3CCc4cc(Cn5nc(-c6ccc7oc(N)nc7c6)c6c(N)ncnc65)ccc4C3)[C@H](OC)C2)C[C@@H](O)[C@H](C)/C=C(\C)[C@@H](O)[C@@H](OC)C(=O)[C@H](C)C[C@H](C)/C=C/C=C/C=C/1C,,,patients with advanced solid tumours,"intravenous, 6 mg weekly, grade 3 or higher",,AE leading to dose reduction,0%
Cc1cnc(N2CC3(CCOCC3)C2)c(C(=O)Nc2ccc(C(=O)N3CCc4cc(C(=O)Nc5c(C)cccc5F)sc4-c4ccccc43)cc2)c1,,,"dog, plasma","inhaled, 0.9 mg/kg",reference: intravenous,bioavailability,~15%
CC(O)CN1CCN(CC(=O)[O-])CCN(CC(=O)[O-])CCN(CC(=O)[O-])CC1.[Gd+3] (stereo not drawn),,LC-ICP-MS,human plasma,"pH 7.4, 37 °C",,dissociation rate,0.014 %/day
C[C@]1(CO)Cc2ncn(-c3ccc(C#N)c(Cl)c3)c2C(=O)O1,,,human,"10 mg, European food-effect part, fed",,drug-related abnormal skin odour,0%
COc1cc(Nc2ncc(F)c(Nc3ccc4c(n3)NC(=O)C(C)(C)O4)n2)cc(OC)c1OC,"CCR5 (Homo sapiens, UniProt P51681)",,,,,IC50,> 10 µM
COc1c(CCC[P+](c2ccccc2)(c2ccccc2)c2ccccc2)cc2c(c1OC)OCO2.[I-],CCRF-CEM,SRB,,,,Log10GI50,-5.77 log M
Clc1cc2c(cc1Cl)Oc1c(ccc(Cl)c1Cl)O2,,,cow whole milk,200 nM,reference: milk fat over skim milk,milk fat partition ratio,351
O=C(Nc1ccccc1)C1CCN(C(=O)Oc2cccnc2)CC1,,,healthy women,"oral, 20 mg, 7 days",,Vascular disorders adverse events,7.1%
CC[C@H](C)[C@H](NC(=O)[C@H](Cc1ccccc1)NC(=O)[C@H](CCC(=O)O)NC(=O)[C@H](CCCNC(=N)N)NC(=O)[C@H](C)NC(=O)[C@H](C)NC(=O)[C@H](CCC(N)=O)NC(=O)[C@H](CCC(=O)O)NC(=O)[C@H](CCC(=O)O)NC(=O)[C@H](CC(C)C)NC(=O)[C@H](Cc1ccc(O)cc1)NC(=O)[C@H](CO)NC(=O)[C@H](CO)NC(=O)[C@@H](NC(=O)[C@H](CC(=O)O)NC(=O)[C@H](CO)NC(=O)[C@@H](NC(=O)[C@H](Cc1ccccc1)NC(=O)[C@@H](NC(=O)CNC(=O)[C@H](CCC(=O)O)NC(=O)[C@H](C)NC(=O)CCc1c[nH]cn1)[C@@H](C)O)[C@@H](C)O)C(C)C)C(=O)N[C@@H](C)C(=O)N[C@@H](Cc1c[nH]c2ccccc12)C(=O)N[C@@H](CC(C)C)C(=O)N[C@H](C(=O)N[C@@H](CCCNC(=N)N)C(=O)NCC(=O)N[C@@H](CCCNC(=N)N)C(=O)N[C@@H](CCCCNC(=O)COCCOCCNC(=O)COCCOCCNC(=O)CC[C@H](NC(=O)CCCCCCCCCCCCCCCCC(=O)O)C(=O)O)C(=O)NCC(=O)NCC(=O)N[C@@H](CO)C(=O)N[C@@H](CCCCNc1c(NCCCCCN(O)C(=O)CCC(=O)NCCCCCN(O)C(=O)CCC(=O)NCCCCCN(O)C(C)=O)c(=O)c1=O)C(=O)O)C(C)C [zirconium-89 labelled],,,"rat, liver","sc, 3 nmol/kg, 24 h, ex vivo",,tissue uptake,0.75 %ID/g
[O-][S+]1CCc2nc(N3CCC(c4ncc(Cl)cn4)CC3)nc(NC3(CO)CCC3)c21 (stereo not drawn),,"phase I trial, item: oral hypoaesthesia",healthy male volunteers,"dose not given, multiple rising dose, all cohorts",,subjects with adverse events,6.3%
CC[C@H](C)CCCCC(=O)N[C@@H](CCN)C(=O)N[C@H](C(=O)N[C@@H](CCN)C(=O)N[C@H]1CCNC(=O)[C@H]([C@@H](C)O)NC(=O)[C@H](CCN)NC(=O)[C@H](CCN)NC(=O)[C@H](CC(C)C)NC(=O)[C@@H](Cc2ccccc2)NC(=O)[C@H](CCN)NC1=O)[C@@H](C)O,,ultracentrifugation,"human patients, plasma","intravenous, predose samples, median",,unbound fraction,0.351
Cn1c(-c2ccc(C(N)=O)cc2F)nnc1C(C)(C)Oc1c(F)cc(Cl)cc1F,,,human,"oral, 10 mg, single ascending dose",,vessel puncture site pain,0%
CN1CC[C@@H](c2c(O)cc(O)c3c(=O)cc(-c4ccc(C(F)(F)F)cc4Cl)oc23)[C@@H]1CO,,item: Vomiting,AML,"oral, 100 mg, intermittent dosing",,patients with adverse event,0%
COc1ccc(N2C(=O)N(c3c(C)cccc3Cl)Cc3cnc(Nc4ccc(C5CCN(C)CC5)cc4OC)nc32)nc1,"ATM (Homo sapiens, UniProt Q13315)",kinase activity,,0.5 µM,,inhibition,-0.5%
COc1ccc2nc3cc(Cl)ccc3c(Nc3cc(CN4CCCC4)c(O)c(CN4CCCC4)c3)c2n1,,,"mouse, blood","oral, 57 mg/kg, tolerability, mean",,creatinine,24.4 µmol/L
C[C@@H](O)[C@@H](CO)NC(=O)[C@@H](CCCNC(=N)N)NC(=O)[C@@H]1CCCN1C(=O)[C@@H]1CSSC[C@H](NC(=O)[C@H](Cc2ccccc2)NC(=O)CN2CCN(CC(=O)O)CCN(CC(=O)O)CCN(CC(=O)O)CC2)C(=O)N[C@@H](Cc2ccc(O)cc2)C(=O)N[C@@H](Cc2ccccc2)C(=O)N[C@@H](CCC(N)=O)C(=O)N[C@@H](CC(N)=O)C(=O)N1 [gallium-68 labelled],,,"Wistar rat, bone","intravenous, 8 MBq, 30 min, group mean",,tissue uptake,0.12 %ID/g
CCCCCCCCCCCCCCCC(=O)N[C@@H](CCC(=O)NCCCC[C@H](NC(=O)[C@H](CC(=O)O)NC(=O)[C@H](CO)NC(=O)[C@@H](NC(=O)[C@H](Cc1ccccc1)NC(=O)[C@@H](NC(=O)CNC(=O)[C@H](CCC(N)=O)NC(=O)[C@H](CO)NC(=O)[C@@H](N)Cc1c[nH]cn1)[C@@H](C)O)[C@@H](C)O)C(=O)N[C@@H](CO)C(=O)N[C@@H](CCC(=O)O)C(=O)N[C@@H](Cc1ccc(O)cc1)C(=O)N[C@@H](CC(C)C)C(=O)N[C@@H](CC(=O)O)C(=O)N[C@@H](CO)C(=O)N[C@@H](CCC(=O)O)C(=O)N[C@@H](CCCNC(=N)N)C(=O)N[C@@H](C)C(=O)N[C@@H](CCCNC(=N)N)C(=O)N[C@@H](CC(=O)O)C(=O)N[C@@H](Cc1ccccc1)C(=O)N[C@H](C(=O)N[C@@H](C)C(=O)N[C@@H](Cc1c[nH]c2ccccc12)C(=O)N[C@@H](CC(C)C)C(=O)N[C@@H](CCC(=O)O)C(=O)N[C@@H](C)C(=O)NCC(=O)NCC(=O)O)C(C)C)C(=O)O,,item: Headache,humans CrCl 45 to 60 mL/min,"subcutaneous, 100 µg single dose",,treatment-related adverse events,0%
CCc1ccc(CC/C=C/c2ccc3c(c2)C(=O)CC3)cc1,,,"Sprague-Dawley rat, male","oral, 450 mg/kg/day, 14 days",,Reticulocyte percentage,6.91%
O=S(=O)(Nc1ccccc1)c1ccc(NC(=S)Nc2ccccc2)cc1,,item: AST,"female mouse, blood","oral, 20 mg/kg daily, 14 days",,serum enzyme activity,531 U/L
COc1cc2c(Oc3ccc4[nH]c(C)cc4c3F)ccnc2cc1OCC1(N)CC1,,,"sarcoma, recurrent or refractory, high-risk, paediatric","concentration not given, grade 3, whole group",,bone pain incidence,0%
CC[C@H](C)[C@@H]1NC(=O)[C@@H]2CCCN2C(=O)[C@H](CC(C)C)NC(=O)[C@H](CC(C)C)NC(=O)CNC(=O)[C@@H](NC(=O)[C@@H](NC(=O)[C@H](CC(=O)O)NC(=O)CNC(=O)[C@@H](NC(=O)[C@H](C)NC(=O)CNC(=O)[C@H](CCCCN)NC(=O)[C@H](CC(C)C)NC(=O)[C@H](CC(C)C)NC(=O)[C@H](CCCCN)NC(=O)CNC(=O)[C@@H](NC(=O)[C@@H](N)CC(C)C)C(C)C)C(C)C)C(C)C)CSSC[C@@H](C(=O)O)NC1=O,,"RNA-seq, item: Lyrm7","mouse, traumatic brain injury model, frontal cortex and hippocampus",dose not given,reference: TBI alone,log2 fold change,1.24
C[C@H]1CN(c2n[nH]c3nc(N[C@H]4CC[C@H](NS(=O)(=O)CCC(F)(F)F)CC4)ncc23)CCO1,"Tubulin alpha-1A chain (Homo sapiens, UniProt Q71U36)","Kinobeads competition, item: TUBA1A",,"0.032 µM, unit not given",reference: vehicle,remaining binding,1.02
CN1CCN(c2cc(-c3ccncc3)c(-c3ccc4ccccc4c3)nn2)CC1,"HTR6 (Homo sapiens, UniProt P50406)","antagonist, FLIPR",,10 µM,,inhibition,14.3%

# For quick reference, copied from above:
SMILES,target or system,assay,test system,setting,how to read,measurement,result
Cc1cnc(N2CC3(CCOCC3)C2)c(C(=O)Nc2ccc(C(=O)N3CCc4cc(C(=O)Nc5c(C)cccc5F)sc4-c4ccccc43)cc2)c1,,,"dog, plasma","inhaled, 0.9 mg/kg",reference: intravenous,bioavailability,~15%
CC(O)CN1CCN(CC(=O)[O-])CCN(CC(=O)[O-])CCN(CC(=O)[O-])CC1.[Gd+3] (stereo not drawn),,LC-ICP-MS,human plasma,"pH 7.4, 37 °C",,dissociation rate,0.014 %/day
C[C@]1(CO)Cc2ncn(-c3ccc(C#N)c(Cl)c3)c2C(=O)O1,,,human,"10 mg, European food-effect part, fed",,drug-related abnormal skin odour,0%
